Experimental data of several laboratories.
Lines come from different studies, so protocols differ. ± gives the spread as reported.

SMILES	tested on	assay	system	conditions	how to read	quantity	result
NNCC1=C(O)C(=O)c2ccccc2C1=O	HepG2	MTT	10% FCS	24 h	–	median lethal concentration	331 ± 105 µM
c1ccc2ncc(Nc3c4c(nc5ccccc35)CCCC4)cc2c1	HepG2	MTT	–	50 µM, 24 h, 10% FBS	–	inhibition	16.7 ± 0.65%
O=C(Cc1ccc2ccccc2c1)N[C@H](Cc1c[nH]c2ccccc12)C(=O)N[C@H](Cc1c[nH]c2ccccc12)C(=O)N[C@H](Cc1ccc(OP(=O)(O)O)cc1)C(=O)O	HepG2	MTT	–	400 µM, 3 days	–	viability	~60%
O=C1C(O)=C(Nc2cccc(Cl)c2)C(=O)c2ccccc21	HepG2	cell growth or viability, MTT	–	72 h	–	CC50	17 µM
CC[C@H](C)[C@H](NC(=O)[C@H](CCC(N)=O)NC(=O)[C@@H](NC(=O)[C@H](CO)NC(=O)CNC(=O)CNC(=O)CNC(=O)[C@@H]1CCCN1C(=O)[C@@H](NC(=O)[C@H](Cc1c[nH]cn1)NC(=O)[C@H](CCCCN)NC(=O)[C@H](CCCCN)NC(=O)CNC(=O)CNC(=O)CNC(=O)[C@@H](N)CSC1CC(=O)N(c2ccc3c(c2)C(=O)OC32c3ccc(N(C)C)cc3Oc3cc(N(C)C)ccc32)C1=O)C(C)C)C(C)C)C(=O)N[C@H](C(=O)N[C@@H](Cc1ccc(O)cc1)C(=O)N[C@@H](CCCCN)C(=O)N1CCC[C@H]1C(=O)N[C@H](C(=O)N[C@@H](CC(=O)O)C(=O)N[C@@H](CC(C)C)C(=O)O)C(C)C)C(C)C (stereo partly drawn)	HepG2	confocal microscopy	–	10 µM, 3 h, 4 °C	relative to: 37 °C	cellular uptake	inhibited
Cc1ccnc(Nc2c3c(nc4ccccc24)CCCC3)c1	HepG2	MTT	–	50 µM, 24 h, 10% FBS	–	inhibition	10.4 ± 0.24%
CC(C)CCC1=C(O)C(=O)c2ccccc2C1=O	HepG2	cell growth or viability, MTT	–	72 h	–	CC50	60 µM
COc1ccnc(Nc2c3c(nc4ccccc24)CCCC3)c1	HepG2	MTT	–	50 µM, 24 h, 10% FBS	–	inhibition	4.25 ± 0.26%
O=C1C(O)=C(CN2CCNCC2)C(=O)c2ccccc21	HepG2	MTT	10% FCS	24 h	–	median lethal concentration	2500 ± 547 µM
Cc1cc(O)c2c(C(=O)[O-])[n+]3n(c2c1)CCCC3	HepG2	cell growth or viability, CCK-8	–	50 µM, 24 h	–	viability	68.4%
COc1cc(C(=O)NCCOCCOCCOCCNC(=O)c2ccc([18F])nc2)ccc1NC(=O)C1NC(CC(C)(C)C)C(C#N)(c2ccc(Cl)cc2F)C1c1cccc(Cl)c1F (stereo not drawn)	HepG2 tumour model	–	host not given, tumour	30 min, tumour-bearing	–	tracer uptake	3.8 %ID/g
C=C1CCC2C(C)(CO)C(O)CCC2(C)C1CC(SC(=S)N1CCN(Cc2cc(F)c(F)cc2F)CC1)C1=CCOC1=O (stereo not drawn)	HepG2	MTT	–	24 h	–	CC50	42.3 ± 1.16 µM
O=C1C(O)=C(Nc2cccc(C(F)(F)F)c2)C(=O)c2ccccc21	HepG2	cytotoxicity, MTT	–	72 h, 10% FBS	–	CC50	180 ± 30 µM
N=C(N)NCCC[C@H](NC(=O)[C@@H]1CCCN1C(=O)[C@H](CC(N)=O)NC(=O)[C@H](Cc1ccccc1)NC(=O)[C@H](Cc1c[nH]cn1)NC(=O)[C@H](Cc1ccccc1)NC(=O)[C@H](Cc1ccccc1)NC(=O)Cc1ccc2ccccc2c1)C(=O)O	HepG2	–	cell lysate	200 µM, 1 h, together with: bortezomib 100 nM	–	remaining peptide	44%
Cc1ccc(Nc2c3c(nc4ccccc24)CCCC3)cc1	HepG2	MTT	–	50 µM, 24 h, 10% FBS	–	inhibition	59.6 ± 2.44%
CC[C@@H](C)[C@@H](NC(=O)[C@@H](C)NC(=O)[C@H](NC(=O)[C@@H](CC(=O)O)NC(=O)[C@@H](CCCCN)NC(=O)[C@@H](CO)NC(=O)[C@H](NC(=O)[C@@H](CC(N)=O)NC(=O)[C@@H](C)NC(=O)[C@H](NC(=O)[C@@H](CCC(=O)O)NC(=O)[C@@H](CCCCN)NC(=O)[C@H](NC(=O)[C@H](NC(=O)[C@@H](Cc1c[nH]cn1)NC(=O)[C@@H](CCCCN)NC(=O)[C@H](NC(=O)[C@@H](CCCCN)NC(=O)[C@@H](CCCCN)NC(=O)[C@H](NC(=O)[C@@H](CC(C)C)NC(=O)[C@@H](CCCCN)NC(=O)[C@@H](CC(N)=O)NC(=O)[C@@H](Cc1ccccc1)NC(=O)[C@@H](CCCNC(=N)N)NC(=O)[C@@H](CCCCN)NC(=O)[C@@H](CCCNC(=N)N)NC(=O)[C@@H](Cc1ccccc1)NC(=O)CN)C(C)C)C(C)C)[C@H](C)O)[C@H](C)CC)[C@H](C)O)C(C)C)C(C)C)C(=O)N[C@@H](C(=O)N[C@H](C)C(=O)NCC(=O)N[C@H](CO)C(=O)NCC(=O)N[C@@H](C(=O)N[C@H](C)C(=O)N[C@@H](C(=O)NCC(=O)N[C@H](C)C(=O)N[C@H](C)C(=O)N[C@H](CCSC)C(N)=O)C(C)C)C(C)C)C(C)C	HepG2	cytotoxicity, item: intracellular ATP	–	–	–	no-observed-effect concentration	433 mg/L
CC(=O)N[C@@H](CC(=O)O)C(=O)N[C@@H](CCC(=O)O)C(=O)N[C@@H](CC(=O)O)C(=O)N[C@H](C(=O)NCC(=O)NCC(=O)NCC(=O)NCCNC(=O)OCC1c2ccccc2-c2ccccc21)C(C)C	HepG2	–	–	200 µM, 2 h, 37 °C	–	metabolized fraction	37.1%
O=C1C(O)=C(CN2CC3CCC2CC3)C(=O)c2ccccc21	HepG2	MTT	10% FCS	24 h	–	median lethal concentration	≥ 3360 µM
CC1CCc2nc3ccccc3c(Nc3ccc4ccccc4n3)c2C1 (stereo not drawn)	HepG2	MTT	–	50 µM, 24 h, 10% FBS	–	inhibition	77.3 ± 2.53%
CC(C)=CCC/C(C)=C/CNCCOC1C2CC3CC(C2)CC1C3 (stereo not drawn)	HepG2	cell growth or viability	–	–	–	CC50	1 µg/mL
CC(=O)N[C@@H](CC(=O)O)C(=O)N[C@@H](CCC(=O)O)C(=O)N[C@H](C(=O)N[C@@H](CC(=O)O)C(=O)NCC(=O)NCC(=O)NCC(=O)NCCNC(=O)OCC1c2ccccc2-c2ccccc21)C(C)C	HepG2	western blot, item: cleaved PARP	–	400 µM, 72 h	relative to: 10 µM camptothecin	apoptotic level	14%
Clc1ccc(Nc2c3c(nc4ccccc24)CCCC3)cc1	HepG2	MTT	–	50 µM, 24 h, 10% FBS	–	inhibition	18.7 ± 0.64%
Cc1cccc2c1NC(=O)C2=Cc1ccc(-c2cccc(C(=O)N3CCCN(C)CC3)c2)o1 (mixture of isomers)	HepG2	cell viability, MTT	–	24 h	–	CC50	> 50 µM
Cc1cccnc1Nc1c2c(nc3ccccc13)CCCC2	HepG2	MTT	–	50 µM, 24 h, 10% FBS	–	inhibition	2.51 ± 0.11%
O=C(CCNC(=O)c1ccc(OC(F)(F)F)cc1)N[C@@H]1CCCc2ccccc21	HepG2	cell growth or viability, MTT	–	72 h	–	CC50	16 µM
Cc1ccnc(Nc2c3c(nc4ccccc24)CCC(C)C3)c1 (stereo not drawn)	HepG2	MTT	–	50 µM, 24 h, 10% FBS	–	inhibition	4.88 ± 0.27%
O=C1C(O)=C(CNC2CCCC2)C(=O)c2ccccc21	HepG2	MTT	10% FCS	24 h	–	median lethal concentration	≥ 3690 µM

For quick reference, copied from above:
SMILES	tested on	assay	system	conditions	how to read	quantity	result
COc1ccnc(Nc2c3c(nc4ccccc24)CCCC3)c1	HepG2	MTT	–	50 µM, 24 h, 10% FBS	–	inhibition	4.25 ± 0.26%
O=C1C(O)=C(Nc2cccc(Cl)c2)C(=O)c2ccccc21	HepG2	cell growth or viability, MTT	–	72 h	–	CC50	17 µM
NNCC1=C(O)C(=O)c2ccccc2C1=O	HepG2	MTT	10% FCS	24 h	–	median lethal concentration	331 ± 105 µM
